Experimental data of several laboratories.
Protocols differ between the studies behind these lines. “And” joins repeats or separate records; there may be more than shown. Numbers after ± are the reported error.
UniProt O15244, sequence (whole entry, looked up): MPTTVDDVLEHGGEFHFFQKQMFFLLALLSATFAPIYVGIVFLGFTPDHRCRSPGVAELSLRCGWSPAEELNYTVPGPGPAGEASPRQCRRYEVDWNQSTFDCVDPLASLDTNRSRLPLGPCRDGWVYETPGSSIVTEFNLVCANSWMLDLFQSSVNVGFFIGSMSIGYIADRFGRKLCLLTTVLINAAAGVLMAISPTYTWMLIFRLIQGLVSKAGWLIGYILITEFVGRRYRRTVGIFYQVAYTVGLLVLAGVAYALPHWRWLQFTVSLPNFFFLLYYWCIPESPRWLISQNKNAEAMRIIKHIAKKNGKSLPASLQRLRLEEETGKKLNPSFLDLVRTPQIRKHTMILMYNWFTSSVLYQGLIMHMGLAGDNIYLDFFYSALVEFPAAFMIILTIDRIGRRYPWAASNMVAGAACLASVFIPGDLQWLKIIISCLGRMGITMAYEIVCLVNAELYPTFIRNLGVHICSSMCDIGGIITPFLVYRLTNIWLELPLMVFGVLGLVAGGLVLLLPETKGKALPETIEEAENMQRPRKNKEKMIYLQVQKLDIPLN
UniProt P08183, sequence (whole entry, looked up): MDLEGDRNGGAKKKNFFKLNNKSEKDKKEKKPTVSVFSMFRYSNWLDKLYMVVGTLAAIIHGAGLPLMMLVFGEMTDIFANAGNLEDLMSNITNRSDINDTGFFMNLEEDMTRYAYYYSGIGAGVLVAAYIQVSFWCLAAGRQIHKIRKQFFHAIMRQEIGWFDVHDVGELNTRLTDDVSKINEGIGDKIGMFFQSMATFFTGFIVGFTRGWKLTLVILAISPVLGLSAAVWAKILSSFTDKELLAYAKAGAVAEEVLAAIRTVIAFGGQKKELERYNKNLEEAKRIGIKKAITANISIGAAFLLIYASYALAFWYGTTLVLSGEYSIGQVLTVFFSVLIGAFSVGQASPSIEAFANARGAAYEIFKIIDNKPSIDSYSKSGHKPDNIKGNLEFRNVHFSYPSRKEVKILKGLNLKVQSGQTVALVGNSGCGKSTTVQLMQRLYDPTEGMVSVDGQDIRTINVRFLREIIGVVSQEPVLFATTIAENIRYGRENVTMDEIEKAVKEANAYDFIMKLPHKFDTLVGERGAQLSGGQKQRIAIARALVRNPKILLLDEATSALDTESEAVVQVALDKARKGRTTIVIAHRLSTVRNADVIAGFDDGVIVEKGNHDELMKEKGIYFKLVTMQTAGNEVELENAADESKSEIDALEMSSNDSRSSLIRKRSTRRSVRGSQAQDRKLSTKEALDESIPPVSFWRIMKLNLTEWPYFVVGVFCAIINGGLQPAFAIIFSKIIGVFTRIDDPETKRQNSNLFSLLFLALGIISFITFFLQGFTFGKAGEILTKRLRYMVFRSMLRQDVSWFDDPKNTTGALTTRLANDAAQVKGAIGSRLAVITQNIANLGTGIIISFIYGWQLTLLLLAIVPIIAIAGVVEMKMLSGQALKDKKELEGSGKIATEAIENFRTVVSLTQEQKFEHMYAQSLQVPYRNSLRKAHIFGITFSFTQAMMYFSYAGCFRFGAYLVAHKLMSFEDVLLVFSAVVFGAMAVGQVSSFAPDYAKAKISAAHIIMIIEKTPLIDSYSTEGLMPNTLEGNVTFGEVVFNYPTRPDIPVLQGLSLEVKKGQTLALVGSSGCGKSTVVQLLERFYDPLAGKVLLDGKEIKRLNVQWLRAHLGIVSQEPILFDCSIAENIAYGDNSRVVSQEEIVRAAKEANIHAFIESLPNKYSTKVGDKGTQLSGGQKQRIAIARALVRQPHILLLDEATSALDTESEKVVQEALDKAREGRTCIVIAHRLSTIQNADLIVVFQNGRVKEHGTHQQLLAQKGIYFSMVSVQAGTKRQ
UniProt P08684, sequence (whole entry, looked up): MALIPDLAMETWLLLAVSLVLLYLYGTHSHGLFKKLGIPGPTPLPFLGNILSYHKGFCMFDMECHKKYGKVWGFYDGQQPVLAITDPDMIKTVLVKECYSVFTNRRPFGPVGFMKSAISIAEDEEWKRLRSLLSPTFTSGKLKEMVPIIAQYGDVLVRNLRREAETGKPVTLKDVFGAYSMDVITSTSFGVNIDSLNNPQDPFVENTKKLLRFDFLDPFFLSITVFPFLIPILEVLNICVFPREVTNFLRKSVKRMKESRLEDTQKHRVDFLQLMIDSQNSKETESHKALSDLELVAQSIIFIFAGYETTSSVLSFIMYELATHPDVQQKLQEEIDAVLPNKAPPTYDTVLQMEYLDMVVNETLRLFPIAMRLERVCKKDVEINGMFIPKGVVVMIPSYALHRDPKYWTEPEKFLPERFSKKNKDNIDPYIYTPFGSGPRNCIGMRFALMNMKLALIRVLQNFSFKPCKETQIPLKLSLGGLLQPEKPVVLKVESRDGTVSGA

CN(C)CCCNc1nc(NC2CCN(Cc3ccccc3)CC2)c2ccccc2n1  cytotoxicity (MV4-11; 10 µM): 100%
CCC1(c2ccccc2)C(=O)NC(=O)NC1=O  induction (CYP2B6 human; enzyme activity, inducer; cryopreserved primary human hepatocytes; 1000 µM, 3 days, 0.1% DMSO; relative to: negative control): 439 to 17800%
COc1ccc2c(c1)[C@]13CCCC[C@@H]1[C@H](C2)N(C)CC3  plasma concentration (C57BL/6 mice, plasma; oral, 50 µg/g, 300 min): 0 ng/mL
COc1cc2c(c(OC)c1OC)-c1ccc(OC)c(=O)cc1[C@@H](NC(C)=O)CC2  inhibition (Solute carrier family 22 member 2 (SLC22A2, Homo sapiens, UniProt O15244); transport, inhibitor; transiently transfected cells; 100 µM, 10 (unit not given), added: metformin): 2.7%
NC(=O)c1ncn([C@@H]2O[C@H](CO)[C@@H](O)[C@H]2O)n1  CC50 (dog cells): 360 µM
Cc1cc(-c2ccccc2)nc(SCC(=O)Nc2cccnc2)c1C#N  viability (MDA-MB-231; MTT; 100 µM, 72 h): 36 ± 4%
CC(C)CC(=O)OC[C@H]1O[C@@](C#N)(c2ccc3c(N)ncnn23)[C@H](O)[C@@H]1O  efflux ratio (ATP-dependent translocase ABCB1 (ABCB1, Homo sapiens, UniProt P08183); Caco-2; 9 µM, 2 h): 6.28
COc1ccc(-n2nc(C(C)=O)s/c2=N\N=C(/C)c2ccc(NC(C)=O)cc2)cc1  viability (WI-38; 10 µM, 24 (unit not given)): 4.33%
CC(C)N(C)N=O  revertant colonies per plate (Escherichia coli; mutagenicity, Ames plate incorporation; WP2 uvrA pKM101; 5000 µg/plate, 3 d, without S9, methanol): 165 ± 3
O=c1ccc2ccccc2o1  chance response (NHEK; cell count; concentration not given, 1 h, heat and osmotic shock panel): 0.07%
Cc1c(Cl)c(=O)oc2cc(OCCCC[Se]C#N)ccc12  developmental defects (Caenorhabditis elegans; N2 Bristol, NGM with E. coli OP50; 50 µM, 3 days): 1.85%
C#Cc1ccc2c(c1)C(c1ccccn1)=NCc1c(-c3cnco3)ncn1-2.Cl  solubility (chloroform; 24 h, 25 °C, thermodynamic equilibrium): 1160 µg/mL
O=NN1CCN(C2CCCC2)CC1  revertant colonies per plate (Escherichia coli; mutagenicity, Ames plate incorporation; WP2 uvrA pKM101; 5000 µg/plate, 3 d, without S9, methanol): 67.3 ± 11
O=[N+]([O-])c1ccc(N2CCC(NCCC(O)c3ccc(F)c4ccccc34)CC2)c(C(F)(F)F)c1 (centres unmarked)  induction factor (Salmonella typhimurium; genotoxicity, SOS/umu test; TA1535/pSK1002; 0.004 mg/mL, 4 h, without S9, lower range): 0.7
CCOc1ccc(-c2nc3ccc(-c4nc5ccc(N6CCN(C)CC6)cc5[nH]4)cc3[nH]2)cc1  Kd (Albumin (ALB, Homo sapiens, UniProt P02768); binding, second site, fluorescence titration; PBS): > 1000 µM
CCN(CC)C(=O)[C@@H]1C=C2c3cccc4[nH]cc(c34)C[C@H]2N(C)C1  AUC extrapolated (human; oral, 100 µg): 1.28% and 3.32% and 2.03% and 5.84% and 1.42% and 11.9% and 1.46%
CC(C)N(N=O)C(C)C  revertant colonies per plate (Escherichia coli; mutagenicity, Ames plate incorporation; WP2 uvrA pKM101; 5000 µg/plate, without S9, methanol): 138 ± 8
COc1ncnn2ccc(-c3cnc4nc(C)n(Cc5nnc([C@@H](C)F)o5)c4c3)c12  patients with increased blood creatinine (human; oral, dose not given, grade 3): 0%
Cc1cc(C(=O)NC(C)(C)COc2cccc3c2C(N)=NS(=O)(=O)N3)cc(C)n1  revertant ratio (Salmonella typhimurium; Ames test, confirmatory; TA1537; 3333 µg/plate; relative to: solvent control): 0.7
CN(CC(C)(C)C)N=O  revertant colonies per plate (Escherichia coli; plate incorporation; WP2uvrA pKM101, methanol; 500 µg/plate, without S9): 114 and 131
O=C1c2c(O)c(=O)ccn2N([C@@H]2c3ccccc3SCc3c2ccc(F)c3F)[C@@H]2COCCN12  plasma concentration (BALB/c mouse, plasma; oral, 1.5 mg/kg baloxavir marboxil every 12 h, 24 h): 2.31 ng/mL
Oc1ccc(C2(c3ccc(O)cc3)c3ccccc3-c3ccccc32)cc1  early apoptotic cells (HepG2 spheroids, dissociated; annexin V-FITC/PI flow cytometry; 0.01 µM, 96 h): 5.25 ± 2.36%
CCC1(c2ccccc2)C(=O)NC(=O)NC1=O  relative enzyme activity (CYP2B6 human; inducer; hepatocytes lot HC3-31; 750 µM; relative to: DMSO): 3.6
Cc1ncc(OC[C@@]2(c3cccc(F)c3)C[C@H]2C(=O)Nc2ccc(F)cn2)c(C)n1  Papp A to B (MDCK; 1 µM, 90 min, pH 6.5 apical, 7.4 basolateral): 45.6 ×10⁻⁶ cm/s and 38.6 ×10⁻⁶ cm/s
CNC(=O)c1c(N(C)N=O)ncn1C  revertant colonies per plate (Escherichia coli; plate incorporation; WP2uvrA pKM101, water; 5000 µg/plate, without S9): 133 ± 5
Cc1ncc2n1-c1ccc(Cl)cc1C(c1ccccc1F)=NC2  AUC(0-inf) (Cytochrome P450 3A4 (CYP3A4, Homo sapiens, UniProt P08684); human, plasma; oral, 2 mg, day 1, alone, geometric mean): 20.7 ng·h/mL
